Experimental data from different studies.
Every numbered part comes from another study and shows a few of its results, in no order. Substitutions count along the parent as printed.

Sample 1
Target: CCNB3, cyclin fold, Cln2 fusion (human)
Method: yeast growth competition, sequencing
Matrix: yeast
Notes: weak parent motif
Relative to: not given
Reading: higher = stronger binding
Endpoint: normalised enrichment score
Parent: REPIN1 docking peptide (human); QSFRGWVALVLHL; partner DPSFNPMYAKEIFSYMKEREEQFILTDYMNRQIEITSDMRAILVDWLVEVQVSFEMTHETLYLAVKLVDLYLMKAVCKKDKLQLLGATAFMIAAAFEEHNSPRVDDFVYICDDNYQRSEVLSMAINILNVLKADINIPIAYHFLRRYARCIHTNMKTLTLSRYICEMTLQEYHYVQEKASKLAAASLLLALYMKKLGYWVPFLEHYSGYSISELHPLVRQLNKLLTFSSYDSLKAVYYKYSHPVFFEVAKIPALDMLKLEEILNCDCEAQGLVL
Change = L11A; result = 0.79
Change = W6A; result = 0.0179
Change = H12A; result = 0.193
Change = S2A; result = 0.041
Change = L13A; result = 0.477
Change = V10A; result = 0.245

Sample 2
Target: ABI1, truncated, D143A, DHFR fusion (Arabidopsis thaliana)
Method: DHFR PCA, deep sequencing
Matrix: yeast
Notes: methotrexate growth selection, single substitutions
Together with: (+)-ABA 710 µM
Relative to: wild-type fitted maximum
Reading: higher = stronger binding
Endpoint: relative binding score
Parent: PYL1, truncated, DHFR fusion (Arabidopsis thaliana); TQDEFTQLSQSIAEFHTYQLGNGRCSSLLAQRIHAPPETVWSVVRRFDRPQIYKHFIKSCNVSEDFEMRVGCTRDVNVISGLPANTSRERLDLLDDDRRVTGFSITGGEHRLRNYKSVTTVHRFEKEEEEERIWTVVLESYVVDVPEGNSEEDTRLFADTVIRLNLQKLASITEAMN
Change = I79F; result = 104%
Change = T17D; result = 91.9%
Change = L169Y; result = 3.32%
Change = G108R; result = 45.2%
Change = L164A; result = 101%
Change = L166E; result = -18.1%
Change = R98P; result = 31.5%
Change = V143C; result = 102%
Change = N177Q; result = 92.8%
Change = E38Q; result = 94.7%
Change = L8K; result = 77.2%
Change = W41S; result = -15.9%
Change = F124V; result = 105%
Change = G148D; result = 95.2%
Change = E38H; result = 90.5%

Sample 3
Target: Sal-like protein 4, full length isoform A (SALL4, Homo sapiens, UniProt Q9UJQ4, residues 1-1053)
Sequence of UniProt Q9UJQ4 (whole entry, looked up): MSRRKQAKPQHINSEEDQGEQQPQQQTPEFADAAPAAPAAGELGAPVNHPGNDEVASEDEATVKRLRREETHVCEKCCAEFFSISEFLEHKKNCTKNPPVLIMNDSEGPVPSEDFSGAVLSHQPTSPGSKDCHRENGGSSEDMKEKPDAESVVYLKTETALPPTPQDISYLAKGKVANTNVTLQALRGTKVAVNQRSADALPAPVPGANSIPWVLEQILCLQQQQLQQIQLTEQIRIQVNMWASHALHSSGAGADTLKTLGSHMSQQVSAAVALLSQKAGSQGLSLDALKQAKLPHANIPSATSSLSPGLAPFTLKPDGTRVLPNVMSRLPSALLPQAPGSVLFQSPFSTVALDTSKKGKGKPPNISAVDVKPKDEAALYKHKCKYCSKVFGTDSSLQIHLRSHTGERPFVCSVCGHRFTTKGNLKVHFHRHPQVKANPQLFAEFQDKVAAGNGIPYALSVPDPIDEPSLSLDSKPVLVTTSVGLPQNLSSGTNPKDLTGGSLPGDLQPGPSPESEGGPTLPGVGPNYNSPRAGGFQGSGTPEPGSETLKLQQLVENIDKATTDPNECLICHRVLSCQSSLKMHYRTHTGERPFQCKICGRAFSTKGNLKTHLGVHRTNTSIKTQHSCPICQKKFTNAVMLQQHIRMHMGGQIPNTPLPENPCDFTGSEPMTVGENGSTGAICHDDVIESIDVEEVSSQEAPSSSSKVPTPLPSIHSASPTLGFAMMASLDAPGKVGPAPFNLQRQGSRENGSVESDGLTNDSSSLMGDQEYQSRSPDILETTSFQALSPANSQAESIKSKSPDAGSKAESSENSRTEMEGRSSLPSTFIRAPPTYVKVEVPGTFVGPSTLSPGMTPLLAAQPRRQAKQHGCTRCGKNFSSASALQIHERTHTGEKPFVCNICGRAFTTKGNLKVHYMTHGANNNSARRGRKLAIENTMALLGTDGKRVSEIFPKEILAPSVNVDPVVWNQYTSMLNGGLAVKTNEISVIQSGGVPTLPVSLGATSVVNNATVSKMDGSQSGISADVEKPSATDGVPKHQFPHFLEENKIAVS
Method: universal PBM
Molecule type: double-stranded DNA, one strand shown
Matrix: in vitro
Concentration: 600 nM
Notes: 8-mer, flanks averaged, mean of replicates
Reading: higher = stronger binding
Endpoint: E-score
Oligonucleotide = ATTACTCG; result = 0.208
Oligonucleotide = ATTGGGAA; result = 0.117
Oligonucleotide = TGCGACAA; result = 0.0752
Oligonucleotide = ATGGGGAG; result = -0.0408
Oligonucleotide = TCTATCCA; result = 0.075
Oligonucleotide = GTACTTTA; result = 0.197
Oligonucleotide = CCAGATCC; result = -0.378
Oligonucleotide = TAGCGTAA; result = 0.121
Oligonucleotide = GAAACGAA; result = 0.203
Oligonucleotide = AGGGACCG; result = -0.308
Oligonucleotide = TCAGGACA; result = -0.03
Oligonucleotide = CCCTGCAG; result = -0.231
Oligonucleotide = CTTCAGAA; result = 0.0527
Oligonucleotide = ACAGAGCC; result = -0.192
Oligonucleotide = AACTTCAG; result = 0.0774
Oligonucleotide = CGAGTCCC; result = -0.206
Oligonucleotide = GACGCATC; result = -0.0463
Oligonucleotide = TGCCTAAA; result = -0.015
Oligonucleotide = GCCACGTA; result = -0.0478
Oligonucleotide = CAGTACAC; result = -0.0335
Oligonucleotide = GGACTAAC; result = -0.146
Oligonucleotide = ACAAGTCT; result = 0.201
Oligonucleotide = GGCAGGGA; result = -0.0931

Sample 4
Target: Interferon regulatory factor 7, full length, phosphomimetic (IRF7, Homo sapiens, UniProt Q92985, residues 1-503, S101K/S471D/S472D/S475D/S476D/S477D/S483D/S484D/S487D)
Method: protein-binding microarray
Molecule type: double-stranded DNA, one strand shown
Matrix: in vitro
Concentration: 250 nM
Notes: 60-bp whole probe
Together with: salmon DNA 0.4 mg/ml
Relative to: random background probes
Reading: higher = stronger binding
Endpoint: log fluorescence
Shared flanks, not repeated: GCCTAGCAC … GTCTTGATTCGCTTGACGCTGCTG
Construct (chain): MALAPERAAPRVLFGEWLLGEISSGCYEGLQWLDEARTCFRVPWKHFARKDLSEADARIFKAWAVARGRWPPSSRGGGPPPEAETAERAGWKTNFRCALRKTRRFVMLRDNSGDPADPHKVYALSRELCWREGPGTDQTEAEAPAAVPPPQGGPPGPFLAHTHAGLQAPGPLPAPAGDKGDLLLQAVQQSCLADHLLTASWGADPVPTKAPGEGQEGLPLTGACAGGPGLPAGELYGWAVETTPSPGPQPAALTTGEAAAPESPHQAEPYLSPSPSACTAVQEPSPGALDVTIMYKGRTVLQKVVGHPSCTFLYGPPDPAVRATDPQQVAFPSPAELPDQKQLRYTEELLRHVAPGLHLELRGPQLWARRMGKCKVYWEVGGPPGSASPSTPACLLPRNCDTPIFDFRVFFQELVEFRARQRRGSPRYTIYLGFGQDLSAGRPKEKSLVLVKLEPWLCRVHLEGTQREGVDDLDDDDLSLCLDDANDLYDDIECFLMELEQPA
Oligonucleotide = TCAATCATTGCTTTCTCACTGTGCTAG; result = 0.241 z-score
Oligonucleotide = TTAGGATTCGGTCTCGGTTAGTGCTAG; result = 3.27 z-score
Oligonucleotide = GACGAACTGAGTCTTGAGACGTGCTAG; result = -0.16 z-score
Oligonucleotide = TTAGGCTTCGGTCTCGGTTAGTGCTAG; result = 1.39 z-score
Oligonucleotide = GACGATTCCAGTTTCGGGACGTGCTAG; result = 3.54 z-score
Oligonucleotide = TTACGACTGGACTTTCGGTTAGTGCTA; result = 0.921 z-score
Oligonucleotide = GCACTCTTCTTTTTTTTCTTGTGCTAG; result = 0.965 z-score
Oligonucleotide = AAACCTCACAGTTTGTAAATGTGCTAG; result = 0.176 z-score
Oligonucleotide = TTAGGTCTCCTTATCCTTTAGTGCTAG; result = 0.693 z-score
Oligonucleotide = GTGTATATACTATATGCATGTGTGCTA; result = 0.233 z-score
Oligonucleotide = ACAAATACAAGTTTCTCCTTGTGCTAG; result = 1.46 z-score
Oligonucleotide = GACGCTCTCGGTCTCGGGACGTGCTAG; result = 0.229 z-score
Oligonucleotide = GACGATATCATTCTCGAGACGTGCTAG; result = 0.242 z-score
Oligonucleotide = GACGGTCTCGGTTTCGGGACGTGCTAG; result = 7.65 z-score
Oligonucleotide = TCAGTTCTGCTTTGCCTACTGTGCTAG; result = 1.92 z-score
Oligonucleotide = TTAGAACTGAGACAGGATTAGTGCTAG; result = -0.0385 z-score
Oligonucleotide = GACGATATCAGTATCGACACGTGCTAG; result = 0.0726 z-score
Oligonucleotide = AGACCTTGCTTTATGTGTAGGTGCTAG; result = -0.0242 z-score
Oligonucleotide = CCAACTCGCCTTTTTTGTTGGTGCTAG; result = 0.337 z-score
Oligonucleotide = TCAACACTAATTTTCATACTGTGCTAG; result = 0.285 z-score
Oligonucleotide = TCAGTCATCTATAATGGAACTGTGCTA; result = 0.0457 z-score
Oligonucleotide = AAATGTGTTAGAAACAGGTTGTGCTAG; result = -0.338 z-score
Oligonucleotide = TTAGATTTCAATCTCGATTAGTGCTAG; result = 0.582 z-score
Oligonucleotide = TTAGGTATCCGTCTCCTTTAGTGCTAG; result = 0.292 z-score
Oligonucleotide = TTAGGTTTCGGTTTTGGTTAGTGCTAG; result = 13.4 z-score

Sample 5
Target: Ras GTPase-activating protein-binding protein 1, full length (G3BP1, Homo sapiens, UniProt Q13283)
Sequence of UniProt Q13283 (whole entry, looked up): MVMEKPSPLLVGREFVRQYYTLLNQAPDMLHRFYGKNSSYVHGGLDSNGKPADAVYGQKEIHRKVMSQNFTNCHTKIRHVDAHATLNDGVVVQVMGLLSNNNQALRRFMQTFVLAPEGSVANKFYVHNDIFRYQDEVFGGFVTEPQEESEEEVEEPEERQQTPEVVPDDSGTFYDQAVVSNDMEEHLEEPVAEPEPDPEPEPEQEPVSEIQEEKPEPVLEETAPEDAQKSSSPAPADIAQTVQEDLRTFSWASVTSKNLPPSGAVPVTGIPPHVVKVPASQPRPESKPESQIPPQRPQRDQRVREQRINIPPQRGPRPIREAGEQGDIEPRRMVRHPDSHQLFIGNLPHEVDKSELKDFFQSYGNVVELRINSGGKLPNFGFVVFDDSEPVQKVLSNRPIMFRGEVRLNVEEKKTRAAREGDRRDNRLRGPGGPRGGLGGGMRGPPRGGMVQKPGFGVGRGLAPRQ
Method: RNA Bind-n-Seq
Molecule type: RNA
Matrix: in vitro
Concentration: 200 nM
Notes: whole 134-nt RNA, ends assumed
Together with: 150 mM LiCl
Relative to: input library
Reading: higher = stronger binding
Endpoint: log2 enrichment
Library: 7-deaza-guanosine replaces G
Shared flanks, not repeated: GGGAGUUCUACAGUCCGACGAUC … UGGAAUUCUCGGGUGUCAAGG
Oligonucleotide = AGUCCUGUGCUACACAUCGUAUGUACCGAAUCGGGAAAAAGGGAAAAAGGAAAAAGGAAAGUAUUAUGUUACGCCGUUCGGAUCUGCACU; result = -1.03
Oligonucleotide = UAACUUUAGAGGAGGAUCUGAUGGAUAUGGCAGUGGACGUGGAUUUGGGGAUGGCUAUAAUGGGUAUGGAGGAGGACCUGGAGGUGCCAA; result = -0.181
Oligonucleotide = CAAGUCCUGUGCUACACAUCGUAUGUACCGAAUCGGCCCCGGGGCCCCGGCCCCGGAAAGUAUUAUGUUACGCCGUUCGGAUCUGCACUU; result = -0.822
Oligonucleotide = GCAGGAAGUAAAAAUAAAUGGAAAUGCUUCGGAUAGUGGCAGGGGUGGGGGUUGCUAAGGAAAGGGUGGGAUGGGAGUGGGUAAAGAGUU; result = 0.111
Oligonucleotide = ACCAUGCAAAUGGGCAUCUUUGGGAAGUGGGGCAAGGGGGGGAUAGGGAGGGGGGUAACACUUUGGGAACAGGUGGUCCCAGGUCGUUUC; result = 0.376
Oligonucleotide = AAGUCCUGUGCUACACAUCGUAUGUACCGAAUCGGAAAAAAAGGUUUGGUUUUUGGAAAGUAUUAUGUUACGCCGUUCGGAUCUGCACUU; result = -2.19
Oligonucleotide = CUGUGCUACACAUCGUAUGUACCGAAUCGGGUUUUUUUGGGGUUUUUUUGGGUUUUUUUGGGAAAGUAUUAUGUUACGCCGUUCGGAUCU; result = 1.51
Oligonucleotide = CUGUGCUACACAUCGUAUGUACCGAAUCGGGGUUUUUUUGGUUUUUUUGGUUUUUUUGGGGAAAGUAUUAUGUUACGCCGUUCGGAUCUG; result = 0.949
Oligonucleotide = UUCUCUAAGAGGAACUCCGGCGCGUCAGAGUAACAGAAGCGAGAGCACAGACAGUCUUGGGGGCUUGUCUCCCUCUGAAGUCACAGCCAU; result = 0.291
Oligonucleotide = ACCAAAAAGGUGGGCAUCUUUGGGAAGUGGGGCAAGGGGGGGAUAGGGAGGGGGGUAACACUUUGGGAACAGGUGGUCCCAGGUCGUUUC; result = 0.344
Oligonucleotide = UGCAGCUCUCCGGCUGGGAUCCUGGUUGACGCCAUGUCCCAGAAGCACCUUCAGAUCAACCAGACAUUUGAGGAGCUGCGACUGGUCACG; result = -1.56

Sample 6
Target: Prothrombin, mature alpha-thrombin (F2, Homo sapiens, UniProt P00734)
Method: aptamer microarray, sandwich
Molecule type: DNA with 2'F-ANA
Matrix: in vitro
Concentration: 200 nM
Notes: whole 15-mer aptamer, many near background
Together with: Cy3 exosite-II aptamer, 400 nM
Reading: higher = stronger binding
Endpoint: mean fluorescence intensity
Oligonucleotide: GGTTGGTGTGGTTGG
Modification = 2'F-ANA at 3 4 6 7 10 11 12 14 15; result = 162 a.u.
Modification = 2'F-ANA at 2 3 6 7 8 10 13; result = 331 a.u.
Modification = 2'F-ANA at 1 2 3 4 6 9 13 14; result = 57 a.u.
Modification = 2'F-ANA at 5 6 7 8 12 15; result = 191 a.u.
Modification = 2'F-ANA at 1 2 4 5 6 8 9 10 11 12 13 14; result = 50.8 a.u.
Modification = 2'F-ANA at 1 3 7 8 10 12 13; result = 107 a.u.
Modification = 2'F-ANA at 2 3 4 7 9 10 11 12 13 14 15; result = 156 a.u.
Modification = 2'F-ANA at 1 5 8 10 14; result = 121 a.u.
Modification = 2'F-ANA at 1 3 5 8 9 10 11 13 14 15; result = 46.8 a.u.
Modification = 2'F-ANA at 8 10 11 12 13 14; result = 99.6 a.u.
Modification = 2'F-ANA at 1 2 4 6 7 11 14 15; result = 47.3 a.u.
Modification = 2'F-ANA at 4 8 9 11 12 14; result = 95.9 a.u.
Modification = 2'F-ANA at 1 5 8 11 13 14 15; result = 110 a.u.
Modification = 2'F-ANA at 2 3 4 9 10 11 12 13 14; result = 176 a.u.
Modification = 2'F-ANA at 1 3 4 5 6 7 11 13 15; result = 59.4 a.u.
Modification = 2'F-ANA at 1 3 4 6 7 9 10 14; result = 49.3 a.u.
Modification = 2'F-ANA at 3 6 7 8 13 15; result = 833 a.u.
Modification = 2'F-ANA at 4 13 15; result = 215 a.u.

Further values, each from its own experiment
Substance = PhoQ, residues 284 288 289 292 302 303 TYGVAM; target = PhoP, residues 12 14 15 18 19 LHATL (Escherichia coli, UniProt P23836); assay = Sort-seq, item: YFP reporter; test system = E. coli; setting = PhoQ-PhoP variant library, together with: 10 µM Mg2+; how to read = relative to: high Mg2+ state, higher = stronger signaling; endpoint = fold induction; result = 8.42

For quick reference, copied from above (sample 2):
Change = R98P; result = 31.5%
Change = V143C; result = 102%
Change = N177Q; result = 92.8%
Change = E38Q; result = 94.7%
Change = L8K; result = 77.2%
Change = W41S; result = -15.9%
Change = F124V; result = 105%
Change = G148D; result = 95.2%
